Published values pooled from the literature.
Lines come from different studies, so protocols differ. Several values in a cell are separate wells, animals, samples, runs or records. Numbers after ± are the reported error.

CC(C)CC(C(=O)N1CC2(CC1C#N)C(=O)Nc1ccccc12)N(C)C(=O)c1cc2c(F)cc(F)c(F)c2[nH]1 (stereo not drawn) — inhibition (human coronavirus NL63; viral replication; LLC-MK2; 0.0016 µM): 0%
Cc1cc(C(=O)Nc2nc3cccc(C)c3n2[C@H]2CCCCN(C(=O)/C=C/CN(C)C)C2)ccn1 — survival (Trypanosoma brucei; STIB795, mouse acute HAT model; oral, 50 mg/kg once daily for 4 days, day 0; relative to: mice): 100%
N#Cc1cccc(/C=C/C(=O)c2ccc(O)cc2)c1 — mRNA level (U-87 MG; refers to: STX1A; concentration not given; relative to: untreated): 0.037 fold
CC(C)C[C@@H]1NC(=O)[C@@H](Cc2c[nH]c3ccccc23)NC(=O)[C@H](CCCNC(=N)N)NC(=O)[C@@H](CCC(=O)O)NC(=O)[C@H](CCC(N)=O)NC(=O)[C@@H](CCC(=O)O)NC(=O)[C@H](CCCNC(=N)N)NC(=O)[C@@H](Cc2c[nH]c3ccccc23)NC1=O — cytokine level (refers to: IL5; LDLr-/- mouse on Western diet, liver; dose not given, 4 weeks): 39 ± 25 pg/g tissue
O=C(c1cncc(-c2ccc3ncnc(Nc4ccc(OCc5cccc(F)c5)c(Cl)c4)c3c2)c1)N1CCOCC1 — EC50 (Plasmodium falciparum; parasite growth, SYBR Green; D6; blood stage): 370 nM
COc1ccccc1-c1ccncc1C(=O)Nc1nnc(OCc2ccc(Cl)cc2)s1 — colony survival (RPE-1 TP53-/- BRCA1-/-; 0.06 µM, average of 2 runs; relative to: untreated): 67.3%
C#CCN1C(=O)C(CC#C)(C(=O)OCC)Oc2ccccc21 (stereo not drawn) — inhibition (L02; cell growth or viability, CCK-8; 3.13 µM, 72 h): 0.39%
Cc1cc(Oc2nc(N3CC[C@@H](c4ccncc4)C3)ncc2F)[nH]n1 — normalised growth (Mycobacterium tuberculosis; OD; H37Rv PurF CRISPRi knockdown; 0.01563 µM, with: anhydrotetracycline low): 7% and 4% and 9%
NNC(=O)c1ccccc1 — normalised absorbance (hydrazine ligation kinetics, absorbance; concentration not given, 25 s, with: 2-formylphenylboronic acid): 0.656
CC1CCC2C(C)C(CCCOC(=O)C(Cc3ccc(N(CCCl)CCCl)cc3)NC(=O)OC(C)(C)C)OC3OC4(C)CCC1C32OO4 (stereo not drawn) — IC50 (7702 normal human cells; cell growth, CCK-8; 48 h): 36300 nM
CC(C)(C)C(=O)OCOP(=O)(OCOC(=O)C(C)(C)C)C1CCCN(O)C1=O (stereo not drawn) — log GI50 (SK-MEL-2): -5.81 log M
CCN(Cc1ccccc1)C(=O)CCc1nc(CN2CCN(C(=O)Cc3ccc(OC)c(OC)c3)CC2)no1 — rheobase (current clamp; DRG neurons, naive rat; 10 µM): 525 ± 93 pA
CCOC(=O)C1(Cc2cc(OC)cc(OC)c2)Oc2cc(F)ccc2N(Cc2cc(OC)cc(OC)c2)C1=O (stereo not drawn) — inhibition (Arabidopsis thaliana; stem length, petri dish germination; Col-0, 1/2 MS medium; 200 µg/mL, 7 days, 22 °C, dark): 45.9%
COc1ccccc1-c1n[nH]c2nc(NC3CCN(C(=O)Cc4ccc(F)cc4F)CC3)ncc12 — relative abundance (bead binding, competition bead pull-down, refers to: LINJ.20.0110; Leishmania donovani extract; 10 µM; relative to: vehicle): 0.94
CCOC(=O)C1(Cc2ccccc2)Oc2cc(F)ccc2N(Cc2ccccc2)C1=O (stereo not drawn) — inhibition (L02; cell growth or viability, CCK-8; 1.56 µM, 72 h): 0.05%
COc1ccccc1-c1n[nH]c2nc(N[C@H]3CC[C@H](NS(=O)(=O)CC(C)C)CC3)ncc12 — relative abundance (bead binding, competition bead pull-down, refers to: LINJ.02.0430; Leishmania donovani extract; 10 µM; relative to: vehicle): 0.85
O=S(=O)(c1cccc(-c2ccc3ncnc(Nc4ccc(OCc5cccc(F)c5)c(Cl)c4)c3c2)c1)N1CCCC1 — EC50 (Plasmodium falciparum; parasite growth, SYBR Green fluorescence; W2, drug-resistant): 480 nM
CCOC(=O)C1(Cc2ccccc2)Oc2cc(OC)ccc2N(Cc2ccccc2)C1=O (stereo not drawn) — inhibition (Arabidopsis thaliana; stem length, petri dish germination; Col-0, 1/2 MS medium; 50 µg/mL, 7 days, 22 °C, dark): 36.4%
O=S(=O)(c1ccc(-c2ccc3ncnc(Nc4ccc(OCc5cccc(F)c5)c(Cl)c4)c3c2)cc1)N1CCCC1 — EC50 (Plasmodium falciparum; parasite growth, SYBR Green; D6; blood stage): 200 nM
CCOC(=O)C1(CC=C(C)C)Oc2cc(F)ccc2N(CC=C(C)C)C1=O (stereo not drawn) — inhibition (Arabidopsis thaliana; stem length, petri dish germination; Col-0, 1/2 MS medium; 200 µg/mL, 7 days, 22 °C, dark): 51.1%
O=C1NC2(CC2)COc2ncc(F)cc2[C@H]2COCCN2c2ccn3ncc1c3n2 — organ-to-body weight ratio (Sprague-Dawley rat, male, testes; oral, 2.5 mg/kg/day, 4 weeks dosing, end of recovery): 0.654 ± 0.109%
C=CCN1C(=O)C(CC=C)(C(=O)OCC)Oc2cc(F)ccc21 (stereo not drawn) — inhibition (L02; cell growth or viability, CCK-8; 0.78 µM, 72 h): 0.07%
Fc1cccc(COc2ccc(Nc3ncnc4ccc(-c5ccc(CN6CCCCC6)cc5)cc34)cc2Cl)c1 — EC50 (Plasmodium falciparum; parasite growth, SYBR Green; D6; blood stage): 68 nM
O=C(O)c1ccc(-c2nc(-c3ccccc3Cl)c3sccn23)cc1 — mean fluorescence intensity (HEL; flow cytometry, refers to: surface CD61; 0.1 mM; higher = more expression): 35900 a.u.
Cc1ccc(NS(=O)(=O)c2c(C(=O)N3CCCCCC3)c(C)n(C)c2C)c(Cl)c1 — infection (Fowlpox virus; viral infection; CEF; 0.137 µM; relative to: untreated): 84.6% and 109%
CN1C(=O)C(C2C3=C(CC(C)(C)CC3=O)Oc3ccc([N+](=O)[O-])cc32)C(=O)N(C)C1=O (stereo not drawn) — mRNA level (mouse preadipocytes; qPCR, refers to: aP2; IC20, 14 days, adipogenic induction; relative to: untreated cells): decreased
CS(=O)(=O)c1ccc(-c2ccc3ncnc(Nc4ccc(OCc5cccc(F)c5)c(Cl)c4)c3c2)cc1 — EC50 (Plasmodium falciparum; parasite growth, SYBR Green; D6; blood stage): 120 nM
Cc1ccc(N2CC3CC(C2)N3C)cc1C(=O)NC1(c2ccc3c4c(cccc24)C(=O)N3C)CC1 — inhibition (Equine-PLpro; enzyme activity, inhibitor; 100 µM): 110% and 98.6%
CSCC[C@H](NC(=O)[C@@H](N)CSC1CC(=O)N(CCNC(=O)COc2ccc(/C=C/C3=[N+]4C(=Cc5ccc(-c6cccs6)n5[B-]4(F)F)C=C3)cc2)C1=O)C(=O)N[C@@H](CCC(=O)O)C(=O)N[C@@H](Cc1ccccc1)C(=O)N[C@H](C(=O)N[C@@H](C)C(=O)N[C@@H](CCCCN)C(=O)N[C@@H](CC(C)C)C(=O)N[C@@H](Cc1ccccc1)C(=O)N[C@@H](CCCCN)C(=O)N[C@@H](Cc1ccccc1)C(=O)N[C@@H](Cc1ccccc1)C(=O)N[C@@H](CCCCN)C(=O)N[C@@H](CC(=O)O)C(=O)N[C@@H](CC(C)C)C(=O)N[C@@H](CC(C)C)C(=O)NCC(=O)N[C@@H](CCCCN)C(=O)N[C@@H](Cc1ccccc1)C(=O)N[C@@H](CC(C)C)C(=O)NCC(=O)N[C@@H](CC(N)=O)C(=O)N[C@@H](CC(N)=O)C(=O)O)C(C)C (stereo partly drawn) — fluorescence excitation increase (mouse alpha-synuclein preformed fibrils; 2 µM, 30 min, emission 735 nm, with: 10 µM fibrils): 7.6 fold
COc1ccc(Nc2ncnc3ccc(-c4ccc(S(=O)(=O)N5CCOCC5)cc4)cc23)cc1Cl — EC50 (Plasmodium falciparum; parasite growth, SYBR Green fluorescence; C235 (TM91C235), drug-resistant): 1200 nM
